# Measurements pooled from the literature.
# Numbered parts are unrelated; each lists some results of a single study.

# Set 1
# Target: RNA binding protein fox-1 homolog 2, RRM domain, GST-SBP tag (RBFOX2, Homo sapiens, UniProt O43251-10, residues 100-194)
# Method: RNA Bind-n-Seq
# Form: RNA
# Sample: in vitro
# Tested at: 365 nM
# Notes: natural RNA segment, single round, ends assumed
# Relative to: no-protein control
# Direction: higher = stronger binding
# Shared flanks, not repeated: GGGAGUUCUACAGUCCGACGAUC … UGGAAUUCUCGGGUGCCAA
# Construct (chain): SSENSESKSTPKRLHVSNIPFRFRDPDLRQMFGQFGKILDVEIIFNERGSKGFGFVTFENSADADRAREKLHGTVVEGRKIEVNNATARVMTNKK
Oligonucleotide,RBNS enrichment (R)
UGUGCCACUGUUUGCUUCAACAGUAUAUCCUAAUAAGCCUCACCUAUUUAAUCCAAUGAGUUUUAAAUCUAAAUCUCAUUCCCUUCUUCUUUCCCUACCUUUUUUUUCUU,1.91
UACCCGGCUGAUGGUUAGCCCCUUGCUGCCUGCUCCAUGUGUCUUAUGAGAGCCCGUAGUUACAGUGUCCUCUAAUUUGAAAUCCAUAAGUUAACAAGUCUAUAUCAGGU,0.429
GUCCAGGGAAGAAGCCACCUCAAGACAUAUGAGGGGUGCCCUGGGCUAAUGUUAGGGCUUAAUUUUCUCAAAGCCUGACCUUUCAAAUCCAUGAUGAAUGCCAUCAGUCC,0.511
CAUUUUAAAGCCUGCUGAUAACUGAGGAGGGCUAAUGAGAUAGGUUUGCUCGUCUGUAAUAGUUAUGUAUGAAGGACUCUUAAUUGCAACUGAAAAGGUCGUGUAUAGGU,1.25
UUAAUGGCUUUGAUUUGUGCUCUAAAGCAAAGCAAAUAACACAGGUUAAUGGUAACUUGUUGUUCUCCUGAUCUAACUGAGUACCACCUUUGGUGUUAAGUGUCAUUGUU,0.271
GCAGGGUGGGUCCAGCCUUGAGCCCCUCCACCCCCAAAUCCUUCCUCUCCUCCCAGUCCCACCCCUUGCCCCACGGAGUCCUGGGGACGCAGUGCCCCAGCUGGGAAGAG,0.273
GGUCUCUUUUGGGUCAAAAUCAGUCCUUCAGCUCUAAGGUUGCCCAGCAAAGGAAUCUAGGAAUGACAACUGCAGUGUCCACUCCUAAACACCUCCUUCUCUUACACCCU,0.723
UCUAAAUGUUCCCUCUGUUCAGCUUAGCAACCCUCCCCCCUUUGCUAUGUAACGCGAUCCCAUUUGCCUCUUGCUCCAUUGUGUGAUAAGCUAUGGGCUUGAAGAUGUUC,0.47
CUGCUGCCUAUUUCCAGCCAGCGGCUGCAUGGUUUGAAGUUCCUCCGUUGUGGUCAGAGGAACUCUGGUGUUUGGUUCCCUGCUCAGCUGCGCGUGGACUGGGCUGAGCU,6.15
AUCUUUGGCUCCUUCUGUCUCAGAAUGAUGGGAAGCCUGACGGGGACCUGAGGAUUGAGGUCCUUGCUUUCUCCUGGUGGCCAUGGGACCUCAGAGGCAUUUUUGCCAAG,0.311
UGUAUACUGCUUGUGUUUGGGUUGAAGCACUACCUGACAUUAAAGGAAGGACUUGGAGAGAGAAUGCAUUUGCUGUGUCCAUCUCUUGAGUUGCGAUUACCCAGUAUCCU,0.449
GGACGUUGAAACUUCUGCUUUCGGAACAGCGUGUGUUGGAAAGCUUGUUUGAGAAUGGCUACUAGAGUUUAAGAGGCUAUGUAUGGAGUUUGUUGGGGAUGUAGUGAUGG,50.2

# Set 2
# Target: Interferon regulatory factor 3, full length, phosphomimetic (IRF3, Homo sapiens, UniProt Q14653, residues 1-427, S386D/S396D/S398D/S402D/T404D/S405D)
# Sequence of UniProt Q14653 (whole entry, unmodified, looked up): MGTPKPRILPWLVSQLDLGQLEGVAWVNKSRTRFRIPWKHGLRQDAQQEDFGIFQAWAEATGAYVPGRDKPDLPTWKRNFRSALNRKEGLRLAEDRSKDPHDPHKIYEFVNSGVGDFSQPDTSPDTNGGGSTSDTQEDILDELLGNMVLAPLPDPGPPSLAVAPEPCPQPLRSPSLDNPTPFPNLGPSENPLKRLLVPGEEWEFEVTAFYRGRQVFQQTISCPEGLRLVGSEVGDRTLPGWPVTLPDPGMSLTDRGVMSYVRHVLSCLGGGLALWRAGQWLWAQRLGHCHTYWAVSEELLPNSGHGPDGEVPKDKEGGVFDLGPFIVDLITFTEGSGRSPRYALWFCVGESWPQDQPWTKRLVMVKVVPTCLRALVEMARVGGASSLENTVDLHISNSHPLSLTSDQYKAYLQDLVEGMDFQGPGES
# Method: protein-binding microarray
# Form: double-stranded DNA, one strand shown
# Sample: in vitro
# Tested at: 2540 nM top
# Notes: 60-bp whole probe
# Added: salmon DNA 0.4 mg/ml
# Relative to: random background probes
# Direction: higher = stronger binding
# Shared flanks, not repeated: GCCTAGCAC … GTCTTGATTCGCTTGACGCTGCTG
Oligonucleotide,fitted relative affinity
ATAGATTTCGGGACTGGATTAGTGCTA,1.44 z-score
GACCATTTCAGTTCCGAGACGTGCTAG,3.18 z-score
GACGGTTTCGGGACTGGGAACGTGCTA,4.91 z-score
TTAGGTATCGGGTTTCAGTTAGTGCTA,2.66 z-score
TTAGATCTCAGTATCTATTAGTGCTAG,0.559 z-score
TTGTGTCAACTTTCTCTGCTCGTGCTA,0.831 z-score
GACGGTATCGGTATCGTGACGTGCTAG,4.14 z-score
TTAGATATCGGATATCGATTAGTGCTA,0.768 z-score
GACGGTCTTGGTTTCGGGACGTGCTAG,2.44 z-score
CTTACTTCCCAATTGTCTTTGTGCTAG,2.79 z-score
GACGAGCTCAGTCTCGAGACGTGCTAG,0.0122 z-score
CACCCTTGGAAGTATGACTCTGTGCTA,-0.00796 z-score
GACGATTTCAGTTTTGAGACGTGCTAG,3.08 z-score
TTAGGTAACGACACTGGGTTAGTGCTA,-0.377 z-score
TTCTGATTGAATCTCCCATTGTGCTAG,0.688 z-score
TTAGGTATCGGCTATCGGTTAGTGCTA,0.425 z-score
CACGGTCTCGGACTGGGGACGTGCTAG,-0.126 z-score
GACGGACTGGACACAGGGGACGTGCTA,-0.429 z-score
TTAGGTCTCGGTATCGATTAGTGCTAG,1.6 z-score
AAGCTCCTATCTTATGATATAGTGCTA,1.16 z-score
ACTAATTTTCAATTCCTGAAGTGCTAG,1.58 z-score
TTAGGACTGCTACTGCGTTAGTGCTAG,-0.793 z-score
TTAGGTCTCGGTCTCCGTTAGTGCTAG,1.15 z-score
CTCATTTTCGTTTTGTGTCTGTGCTAG,4.53 z-score
GACGGTCTCGGTTTCGGGATGTGCTAG,4.2 z-score

# Set 3
# Target: Max dimerization protein 1, bHLH-zipper, MAX partner unstated (MXD1, Homo sapiens, UniProt Q05195, residues 56-136)
# Method: protein-binding microarray
# Form: double-stranded DNA, one strand shown
# Sample: in vitro
# Tested at: not given
# Notes: k-mer, scored over probes, only values ≥0.25
# Direction: higher = stronger binding
# Target sequence (chain): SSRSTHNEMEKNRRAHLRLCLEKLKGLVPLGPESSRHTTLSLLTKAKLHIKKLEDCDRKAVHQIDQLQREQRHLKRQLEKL
Oligonucleotide,E-score
CATGCTAA,0.259
AACCGCGT,0.277
CGTGCTAC,0.299
CAAACGTG,0.336
AAATGTGG,0.251
ACATGTTA,0.275
GCATATGC,0.341
CGTGCTGA,0.303
CATGCTGC,0.387
CACGGGTA,0.292
CAACCCAC,0.281
AGACACGC,0.366
ACTCCACG,0.335
CATGTATC,0.286
ACGTGGTG,0.411
ACAATGTG,0.351
CATGCTGG,0.419
GCACGGGA,0.252
ACGCGGGA,0.314
ACATGCGG,0.448
GCGTGAGA,0.278
GGGCATGA,0.28
CACGCATG,0.436
CAATGCGG,0.252
CACACTCC,0.253

# Set 4
# Target: Hepatocyte nuclear factor 3-alpha (Foxa1, Mus musculus, UniProt P35582, residues 1-468, full length assumed)
# Method: EMSA with sequencing
# Form: double-stranded DNA, one strand shown
# Sample: in vitro
# Tested at: 10 and 20 nM
# Notes: whole designed probe, mean of two concentrations, ends assumed
# Relative to: negative control set to 0
# Direction: higher = stronger binding
# Shared flanks, not repeated: GTGAGCGGTGCCCATTGATGGGGAAC … TTTCACTGGGATCGTGGGGAC
# Construct (chain): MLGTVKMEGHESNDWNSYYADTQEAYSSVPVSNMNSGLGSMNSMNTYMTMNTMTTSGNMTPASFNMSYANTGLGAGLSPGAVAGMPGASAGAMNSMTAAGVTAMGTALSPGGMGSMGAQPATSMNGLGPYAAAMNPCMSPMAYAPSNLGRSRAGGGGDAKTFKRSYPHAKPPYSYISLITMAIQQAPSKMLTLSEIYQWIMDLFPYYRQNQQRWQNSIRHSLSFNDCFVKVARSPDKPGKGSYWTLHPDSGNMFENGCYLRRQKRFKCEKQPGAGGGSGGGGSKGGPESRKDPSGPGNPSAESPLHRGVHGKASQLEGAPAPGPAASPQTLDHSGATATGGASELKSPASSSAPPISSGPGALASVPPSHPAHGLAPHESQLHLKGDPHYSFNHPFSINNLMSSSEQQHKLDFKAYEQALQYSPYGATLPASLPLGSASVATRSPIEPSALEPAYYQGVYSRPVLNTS
Oligonucleotide,normalised bound fraction [ratio]
ATCCCTTTCCCTCTCCTTGCCCCACCAGCTCACCTTCCCGGGTTATTTGCAGATAGGAAAATAAATAAAGCCGGCATTCGTTAACCCTCTTCTGGCGCAAACTGCTGTTTGCTCTGGATGAATCATGGTCCTTTGGCGACGCCAGGCTCCGGGAGAGCAAAGCACCGTGTCAGGGCCATGATCCGGGGTGGCC,0.33
ATCTTCCCCCTCTTCCTTGCCCCACCAGCTCACCTTCCCGGGTTATTTGCACAAAGGAAAATAAATAAAGCCGGCATTCGTTAACGCAGTTCTGGCGCAAACTGCTGTTTGCTCTGCATGAATCATGGTCCTTACGCGAGGCGTGGCTCCGGGAGAGCAAAGCACCGTGTCAGGCGCATGATCCGGGGTGGCC,0.381
ATATTTTACATACGTGTATTAAATATATATATATATAAATGTCTCCTGTTCTTTTTCAGTAATCATAGTGTTTTTACAATTATCTGTTACTATGTAAACATTTATTTCAAGGCATTGGTCACGTTACCTACCTACTCTTCCAGGGAATGGACATGCAGATTGCCTTCATACCCTCCCACCACAGGAAATGCTG,0.496
TTGAGTTTTTTCCACTTTTTGACTACTATGAATAATGCTTCTGTAAACATTCTTGTACAAGTTTCTTTGGGAAATATTTTTTCAGTTCTCCTGTGTGTACTTAGGAGTTGAATTGCTGAGTCATGTGGTAACTATGTTTAGCTTTTTGAGGAACTGCCAAACTATTTTCCAAAATGACTGCACCATTTTACAA,0.374
ACGGAAAGTATGTTGCTGGGGCACAACATTCCAACCACCGCTCTCACAGCAGTACAAGTATCTCATTCTTCACCTTTTAAAATATTTGCCTCTAGATTATATAGTGCCTGCAAGATTGCAGAGCACATTCACTGGACACTTTTTCATGGGCTCAGAGGGGGTTTGCATTGCAATGAATCTGAGAGGTCATTCT,-0.055
ATCTTCCCCCTCTTCCTTGCCCCACCAGCTCACCTACGGGGGTTATTTGCAGATAGGAAAATAAATAAAGCCGGCATTCGTTAACCCTCTTCTGGCGCAAACTGCTGTTTGCTCTGCATGAATCATGGTCCTTACGCGACGCCAGGCTCCGGGAGAGCAAAGCACCGTGTCAGGCGCATGATCCGGGCTCGCC,0.345

# A few entries again (set 1):
Oligonucleotide,RBNS enrichment (R)
UCUAAAUGUUCCCUCUGUUCAGCUUAGCAACCCUCCCCCCUUUGCUAUGUAACGCGAUCCCAUUUGCCUCUUGCUCCAUUGUGUGAUAAGCUAUGGGCUUGAAGAUGUUC,0.47
UUAAUGGCUUUGAUUUGUGCUCUAAAGCAAAGCAAAUAACACAGGUUAAUGGUAACUUGUUGUUCUCCUGAUCUAACUGAGUACCACCUUUGGUGUUAAGUGUCAUUGUU,0.271
UGUGCCACUGUUUGCUUCAACAGUAUAUCCUAAUAAGCCUCACCUAUUUAAUCCAAUGAGUUUUAAAUCUAAAUCUCAUUCCCUUCUUCUUUCCCUACCUUUUUUUUCUU,1.91
UGUAUACUGCUUGUGUUUGGGUUGAAGCACUACCUGACAUUAAAGGAAGGACUUGGAGAGAGAAUGCAUUUGCUGUGUCCAUCUCUUGAGUUGCGAUUACCCAGUAUCCU,0.449
